Measured values from different studies.
Each line is one published result; not all experiments were run side by side. Values joined by “and” are separate records of one study, mostly repeats; a detail may differ.
Target: RAC-alpha serine/threonine-protein kinase (AKT1, Homo sapiens, UniProt P31749)
UniProt P31749, sequence (whole entry, looked up): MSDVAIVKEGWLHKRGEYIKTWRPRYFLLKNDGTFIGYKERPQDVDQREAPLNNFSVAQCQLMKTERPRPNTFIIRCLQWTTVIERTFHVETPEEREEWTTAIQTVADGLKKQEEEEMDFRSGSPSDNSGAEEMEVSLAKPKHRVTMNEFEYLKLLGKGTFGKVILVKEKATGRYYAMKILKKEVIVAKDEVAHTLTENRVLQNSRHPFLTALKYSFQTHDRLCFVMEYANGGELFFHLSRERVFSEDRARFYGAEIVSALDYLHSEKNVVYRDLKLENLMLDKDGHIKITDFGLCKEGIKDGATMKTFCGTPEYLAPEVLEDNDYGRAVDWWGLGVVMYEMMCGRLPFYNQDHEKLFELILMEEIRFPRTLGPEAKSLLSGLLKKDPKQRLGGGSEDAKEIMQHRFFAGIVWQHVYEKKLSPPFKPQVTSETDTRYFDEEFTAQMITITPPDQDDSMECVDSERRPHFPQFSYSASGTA

O=C1NC(=O)c2c1c1cc(F)c[n+]3c1c1c2c2cc(O)ccc2[n]1[Ru-4]312([N]=C=S)[S+]3CC[S+]1CC[S+]2CC3 (stereo not shown)  remaining activity (enzyme activity; 100 nM, human enzyme, with: 10 µM ATP; reference: untreated): 10%
O=C(O)c1ccccc1/C=N/Nc1nc(-c2ccccc2Cl)cs1  inhibition (kinase activity; 1 µM, mean): 0.94%
C[C@H](NCc1ccc(-c2ccc(C(F)(F)F)cc2)cc1)C(N)=O  inhibition (cell-free assay, competition with immobilised ligand; 1 µM): 7%
CN(C)[C@H]1C[C@@]23CC[C@@]4(O2)C(=CC[C@]2(C)[C@@H](c5ccc6ccncc6c5)CC[C@H]24)C=C3[C@@H](O)[C@@H]1O  inhibition (ATP probe labelling, inhibitor, KiNativ profiling; 0.1 µM): -4.6%
CC(C)[C@H]1NC(=O)C[C@H]2/C=C/CCSSC[C@@H](NC1=O)C(=O)N[C@H](Cc1cccc3ccccc13)C(=O)NCC(=O)O2  inhibition (enzyme activity, inhibitor; 10 µM): -1.7%
Nc1ccc(/C=C/C(=O)N2CCc3c(oc4c(-c5ccc(F)cc5)cc(-c5ccc(C(=O)N6CCC(F)(F)CC6)cn5)cc34)C2)cn1  remaining binding (binding, competition with immobilised ligand; 1 µM): 99%
CS(C)(=O)=Nc1ccc(-c2ccc(-c3nc4cc(O[C@@H]5CO[C@H]6[C@@H]5OC[C@H]6O)[nH]c4cc3F)cc2)cc1  inhibition (enzyme activity, inhibitor; 10 µM): -9%
N[C@H](C(=O)N1CCCC1)C1CCN(c2nccc3c(-c4ncc(Cl)cc4Cl)cccc23)CC1  inhibition (kinase activity, inhibitor; 10 µM, with: ATP 1 mM): 2.1%
[CH3][Ti+2][O]C(=O)c1ccc([S][Au][PH](c2ccccc2)(c2ccccc2)c2ccccc2)cc1.c1cc[cH-]c1.c1cc[cH-]c1  remaining activity (kinase activity, HotSpot radiometric; 1 µM, with: ATP 10 µM; reference: vehicle): 88.2% and 89%
CCOC(=O)[C@@H]1Cc2c(cc([N+](=O)[O-])cc2[N+](=O)[O-])[C@H](O)[C@]12C(=O)Nc1ccc(Br)cc12  remaining binding (binding, competition with immobilised ligand; 0.1 µM): 76%
